# Experimental data from different studies.
# Every numbered part comes from another study and shows a few of its results, in no order. “And” joins repeats or separate records; there may be more than shown.

# Series 1
# SMILES: CC(C)CN(C)c1nc(N)c(C(=O)N=C(N)N)nc1Cl
# Read-out: β-arrestin recruitment
# Action: agonist
# Technique: PRESTO-Tango
# Tested at: 10 µM
# Reference: untreated
target,fold over basal
"G-protein coupled receptor 6 (Homo sapiens, UniProt P46095)",1.17
"C3AR1 (Homo sapiens, UniProt Q16581)",0.83
"S1PR1 (Homo sapiens, UniProt P21453)",1.3
"P2Y purinoceptor 13 (P2RY13, Homo sapiens, UniProt Q9BPV8)",0.91
"GHSR (Homo sapiens, UniProt Q92847)",1.33 fold
"C5AR2 (Homo sapiens, UniProt Q9P296)",0.95
"FFAR2 (Homo sapiens, UniProt O15552)",0.95 fold
"ADGRF1 (Homo sapiens, UniProt Q5T601)",0.86
"OXGR1 (Homo sapiens, UniProt Q96P68)",1.26
"Probable G-protein coupled receptor 34 (Homo sapiens, UniProt Q9UPC5)",0.9
"C-C chemokine receptor-like 2 (Homo sapiens, UniProt O00421)",0.99
"G-protein coupled receptor family C group 5 member D (GPRC5D, Homo sapiens, UniProt Q9NZD1)",0.66

# Series 2
# Organism: Sarcocystis neurona
# Read-out: parasite growth
# Tested at: 10 µM
# Time: 96 h
# Notes: second screen
# Reference: untreated
SMILES,log2 fold change
CCOC(=O)[C@@]1(CCCCCCOc2ccc(Cl)cc2)CO1,0.19
CCCCN1CCCC1CNC(=O)c1cc(C#N)c2ccccc2c1OC (stereo not drawn),0.41
CCC1=C(C)CN(C(=O)NCCc2ccc(S(=O)(=O)NC(=O)N[C@H]3CC[C@H](C)CC3)cc2)C1=O,0.71
O=C(O[C@H]1[C@H](Oc2ccccc2COC(=O)C2(O)C=CCCC2=O)O[C@H](CO)[C@@H](O)[C@@H]1O)c1ccccc1 (stereo partly drawn),0.5
Cc1nc2ccccn2c(=O)c1CCN1CCC(C(=O)c2ccc(F)cc2)CC1,-0.19
Cc1c(OCC(F)(F)F)ccnc1C[S+]([O-])c1nc2ccccc2[nH]1 (stereo not drawn),1.55
Cc1ccsc1C(=CCCN1CCC[C@@H](C(=O)O)C1)c1sccc1C,0.39
CC=CC(=O)N(CC)c1ccccc1C (mixture of isomers),0.32
CN1CCN(CCCN2c3ccccc3Sc3ccc(C(F)(F)F)cc32)CC1,0.24

# Series 3
# SMILES: CC1=C(C#N)C(c2ccc3c(c2)c(NC(=O)c2ccccc2C)nn3C)C(C#N)=C(C)N1
# Technique: competition with immobilised ligand
# Tested at: 1 µM
target,read-out,remaining binding [%]
"GRK3 (Homo sapiens, UniProt P35626)",cell-free assay,93
"MAP3K13 (Homo sapiens, UniProt O43283)",cell-free assay,99
"MAP3K2 (Homo sapiens, UniProt Q9Y2U5)",cell-free assay,100
"LCK (Homo sapiens, UniProt P06239)",cell-free assay,81
"Cyclin-dependent kinase 4, with cyclin D1 (CDK4, Homo sapiens, UniProt P11802)",cell-free assay,100
"TSSK3 (Homo sapiens, UniProt Q96PN8)",cell-free assay,80
"CDK3 (Homo sapiens, UniProt Q00526)",cell-free assay,99
"AKT3 (Homo sapiens, UniProt Q9Y243)",cell-free assay,93
"FYN (Homo sapiens, UniProt P06241)",cell-free assay,100
"NEK9 (Homo sapiens, UniProt Q8TD19)",cell-free assay,100
"CSK (Homo sapiens, UniProt P41240)",cell-free assay,85
"Tyrosine-protein kinase ABL1, phosphorylated (ABL1, Homo sapiens, UniProt P00519, T315I)",cell-free assay,97
"NEK1 (Homo sapiens, UniProt Q96PY6)",cell-free assay,100
"EPHA3 (Homo sapiens, UniProt P29320)",cell-free assay,99
"AXL (Homo sapiens, UniProt P30530)",cell-free assay,100
"Tyrosine-protein kinase ABL1, phosphorylated (ABL1, Homo sapiens, UniProt P00519, F317L)",cell-free assay,91
"MAST1 (Homo sapiens, UniProt Q9Y2H9)",cell-free assay,92
"BTK (Homo sapiens, UniProt Q06187)",cell-free assay,85
"MAPK14 (Homo sapiens, UniProt Q16539)",cell-free assay,88
"Ribosomal protein S6 kinase alpha-1, C-terminal kinase domain (RPS6KA1, Homo sapiens, UniProt Q15418)",cell-free assay,100
"SIK3 (Homo sapiens, UniProt Q9Y2K2)",cell-free assay,81
"TAOK2 (Homo sapiens, UniProt Q9UL54)",cell-free assay,70
"Tyrosine-protein kinase ABL1, phosphorylated (ABL1, Homo sapiens, UniProt P00519, E255K)",binding,63
"Non-receptor tyrosine-protein kinase TYK2, JH2 (TYK2, Homo sapiens, UniProt P29597)",cell-free assay,82
"CASK (Homo sapiens, UniProt O14936)",cell-free assay,67

# Series 4
# SMILES: C[C@@H]1CN(c2ccc(-c3cc(C(=O)NCCOCCOCCOCCOCCOCCOCCOCCOCCOCCNC(=O)/C=C/c4[nH]cc(C(=O)N[C@@H](CC(N)=O)c5ccc(F)c(Cl)c5)c4-c4ccc(Cl)cc4F)ccc3F)cc2NC(=O)c2c[nH]c(=O)cc2C(F)(F)F)C[C@H](C)N1C
# Action: degrader
# Time: 24 h
# WDR5: WD repeat-containing protein 5 (WDR5, Homo sapiens, UniProt P61964)
# WDR5/DCAF1: WDR5/DCAF1 (Homo sapiens, UniProt P61964+Q9Y4B6)
target,technique,measured,tested at,reference,remaining protein level
WDR5,Jess capillary immunoassay,WDR5 over vinculin,4.69 nM,DMSO,94.1% and 95% and 101%
WDR5,Jess capillary immunoassay,WDR5 over vinculin,141 nM,DMSO,62.1% and 62% and 64.3%
WDR5/DCAF1,HiBiT luminescence,,3880 nM,,22.7% and 24.8% and 29% and 28.2%
WDR5,Jess capillary immunoassay,WDR5 over vinculin,1821 nM,DMSO,51.2% and 56.4% and 50.5%
WDR5/DCAF1,HiBiT luminescence,,13.3 nM,,80.3% and 89.6% and 90% and 73.4%

# Repeated from above (series 2):
SMILES,log2 fold change
CCC1=C(C)CN(C(=O)NCCc2ccc(S(=O)(=O)NC(=O)N[C@H]3CC[C@H](C)CC3)cc2)C1=O,0.71
Cc1ccsc1C(=CCCN1CCC[C@@H](C(=O)O)C1)c1sccc1C,0.39
Cc1c(OCC(F)(F)F)ccnc1C[S+]([O-])c1nc2ccccc2[nH]1 (stereo not drawn),1.55
